Experimental data collected from several papers.
Each line is one published result; not all experiments were run side by side. ± marks the error that the study gave.

CC(=O)N1CCN(c2ccc(Nc3ncc4c(n3)N(C)C(=O)N(c3cc(NC(=O)c5ccc(CN6CCC(N(C)C)C6)c(C(F)(F)F)c5)ccc3C)C4)cn2)CC1 (stereo not drawn) — GI50 (HepG2 (FGFR4 overexpressing); cell proliferation, CellTiter-Glo; 72 h): 0.076 ± 0.04 µM
CCOc1ccccc1Nc1nnc(SCC(=O)Nc2cc(F)ccc2F)s1 — IFN-γ level (A549 spheroids with human PBMCs; 25 µM, 48 h, E:T 5:1, together with: anti-CD3 0.3 µg/mL): 18 ± 3 pg/mL
CN(C)C(=O)Cn1cc(-c2ccc(-c3cncc4ccncc34)cc2)cn1 — CD33 surface level (HL-60; flow cytometry; concentration not given, 24 h): no effect
CC(=NN=c1[nH]c2cc(F)c(F)cc2n1C)c1ccc(F)cn1 — inhibition (MCF7; cell migration area; concentration not given; reference: untreated): ~50%
Nc1ccc2cc(N)ncc2c1 — protein level (LX-2; western blot, refers to: α-SMA; concentration not given, together with: TGF-β1): decreased
O=C(NNC(=S)Nc1cccc(C(F)(F)F)c1)c1cccn1-c1ccc(F)cc1 — reduction in p-tau (primary rat cortical neurons; refers to: tau pS396/pS404; concentration not given): ~50%
CCOc1ccc(S(=O)(=O)NC(=O)Cc2ccc(I)cc2)cc1Br — inhibition (THP1-Dual; IRF reporter gene; 100 µM, 16 h, together with: ht-DNA transfection): 76%
C=CC(=O)Nc1cccc(N(C(=O)OCc2ccc(F)cc2)c2ccnc(Nc3ccn(C)n3)n2)c1 — EC50 (Ba/F3 EGFR V769_D770insASV; cell growth; above 10 µM not active): 0.094 ± 0.0053 µM
C=CC(=O)N1CCC(c2cc(Nc3cc4n(n3)CCOC4)c3ncnn3c2)C1 (single isomer, unassigned) — maximum inhibition (TMD8; calcium flux, FLIPR; 2 h preincubation, together with: anti-IgM): 8.9%

For quick reference, copied from above:
CN(C)C(=O)Cn1cc(-c2ccc(-c3cncc4ccncc34)cc2)cn1 — CD33 surface level (HL-60; flow cytometry; concentration not given, 24 h): no effect
